{"data": "Measured values of several laboratories", "MTOR": "Serine/threonine-protein kinase mTOR (MTOR, Homo sapiens, UniProt P42345)", "MTOR with FKBP12": "Serine/threonine-protein kinase mTOR, with FKBP12 (MTOR, Homo sapiens, UniProt P42345)", "note": "Compare with care: the assays were run in different laboratories."}
{"SMILES": "C[C@H]1CN(C(=O)c2cn(-c3ccnc(N)n3)c3cc(C#CC4(O)CCCCC4)ccc23)CCN1", "target": "MTOR", "test": "enzyme activity, inhibitor, FRET", "conditions": "1 µM", "endpoint": "inhibition", "result": "2%"}
{"SMILES": "CNC(=O)C[C@H](Cc1ccc(C#N)cc1)NC(=O)c1cc(-c2ccc(CN[C@H](C)c3ccc(C)cc3)o2)ccc1Cl", "target": "MTOR", "test": "enzyme activity, inhibitor", "conditions": "1 µM", "endpoint": "activity vs control", "result": "100%"}
{"SMILES": "COc1ccc(C(=O)/C=C/c2ccccc2-c2c[nH]c3ccc(C#N)cc23)c(O)c1", "target": "MTOR", "test": "enzyme activity, inhibitor", "conditions": "20 µM", "endpoint": "inhibition", "result": "-9%"}
{"SMILES": "Cc1cccc(O[C@H]2CCC[C@@H](C(C)CNCc3ccncc3)C2)c1 (relative stereo)", "target": "MTOR", "test": "enzyme activity, inhibitor", "conditions": "10 µM", "endpoint": "inhibition", "result": "-5%"}
{"SMILES": "C=CC(=O)N1CCCC(n2c(=O)c3ncccc3n(Cc3ccc(Oc4ccccc4)cc3)c2=O)C1 (stereo not drawn)", "target": "MTOR", "test": "cell-free assay, competition with immobilised ligand", "conditions": "1 µM", "endpoint": "remaining binding", "result": "63%"}
{"SMILES": "CN1CCN(Cc2ccc(-c3ccc(CO[C@H]4CCC[C@@H]4NC(=O)c4cc(-c5cnn(C)c5)cnc4N)cc3)cc2)CC1", "target": "MTOR", "test": "enzyme activity, inhibitor", "conditions": "0.1 µM", "endpoint": "inhibition", "result": "-3%"}
{"SMILES": "O=C(Cc1ccc(OCc2ccccc2)cc1)NC1(C(=O)O)CCN(C(=O)c2ccc(-c3cccc(Cl)c3)cc2)CC1", "target": "MTOR with FKBP12", "test": "kinase activity, inhibitor", "conditions": "10 µM, with: ATP at Km", "endpoint": "remaining activity", "result": "100%"}
{"SMILES": "Cc1nc2c(F)cc(-c3nc(Nc4ccc(CNC(=O)CCCCCCC(=O)NO)cc4)ncc3F)cc2n1C(C)C", "target": "MTOR", "test": "enzyme activity, inhibitor", "conditions": "1 µM", "endpoint": "inhibition", "result": "59%"}
{"SMILES": "COc1ccc(NC(=O)Nc2ccc3c(c2)C(=O)N(C(C)CO)CC(C)C(CN(C)Cc2ccc4c(c2)OCO4)O3)cc1 (stereo not drawn)", "target": "MTOR with FKBP12", "test": "kinase activity, KinaseProfiler", "conditions": "0.03 µM, species human", "how to read": "baseline: control", "endpoint": "remaining activity", "result": "125%"}
{"SMILES": "CNC1C[S+]2CC[S+]3CC[S+](C1)[Ru-4]321([N]=C=S)[n]2c3ccc(OC)cc3c3c4c(c5cc(F)c[n+]1c5c32)C(=O)NC4=O (stereo not drawn)", "target": "MTOR", "test": "kinase activity", "conditions": "0.1 µM", "endpoint": "remaining activity", "result": "98%"}
{"SMILES": "C=CC(=O)Nc1cc(-c2nn(C3CCN(CCNC(=O)[C@H](C)CCC45CC6CC(CC(C6)C4)C5)CC3)c3ncnc(N)c23)ccc1Oc1ccccc1", "target": "MTOR", "test": "inhibitor", "conditions": "2 µM", "endpoint": "inhibition", "result": "5.1%"}
{"SMILES": "CN1CC[C@@H](COc2cnc(C#N)cc2-c2ccn3nc(NC(=O)C4CC4)cc3c2)C1", "target": "MTOR", "test": "enzyme activity, inhibitor", "conditions": "1 µM", "endpoint": "inhibition", "result": "4%"}
{"SMILES": "CCN1CCN(Cc2ccc(C(=O)Nc3ccc(C)c(NCc4cnc5[nH]ccc5c4OC)c3)cc2C(F)(F)F)CC1", "target": "MTOR", "test": "binding, competition with immobilised ligand", "conditions": "1 µM", "endpoint": "remaining binding", "result": "100%"}
{"SMILES": "Cc1cnc2nc1Nc1cccc(c1)COC/C=C/COCc1cc(ccc1OCCN1CCOCC1)N2", "target": "MTOR", "test": "binding", "conditions": "0.1 µM", "endpoint": "remaining binding", "result": "72%"}
{"SMILES": "CC(=O)N1c2ccc(-c3ccc(CNC(=O)c4cn5cc(-c6cnc(N)nc6)nc(N6CCOCC6)c5n4)cc3)cc2CC[C@@H]1C", "target": "MTOR", "test": "enzyme activity, inhibitor, radiometric", "conditions": "10 µM", "endpoint": "remaining activity", "result": "80%"}
